Literature values that unrelated publications cite.
Lines come from different studies, so protocols differ. ± marks the error that the study gave. ≈ marks a conversion by molar mass, not a printed value.
UniProt Q9Y6R4, sequence (whole entry, looked up): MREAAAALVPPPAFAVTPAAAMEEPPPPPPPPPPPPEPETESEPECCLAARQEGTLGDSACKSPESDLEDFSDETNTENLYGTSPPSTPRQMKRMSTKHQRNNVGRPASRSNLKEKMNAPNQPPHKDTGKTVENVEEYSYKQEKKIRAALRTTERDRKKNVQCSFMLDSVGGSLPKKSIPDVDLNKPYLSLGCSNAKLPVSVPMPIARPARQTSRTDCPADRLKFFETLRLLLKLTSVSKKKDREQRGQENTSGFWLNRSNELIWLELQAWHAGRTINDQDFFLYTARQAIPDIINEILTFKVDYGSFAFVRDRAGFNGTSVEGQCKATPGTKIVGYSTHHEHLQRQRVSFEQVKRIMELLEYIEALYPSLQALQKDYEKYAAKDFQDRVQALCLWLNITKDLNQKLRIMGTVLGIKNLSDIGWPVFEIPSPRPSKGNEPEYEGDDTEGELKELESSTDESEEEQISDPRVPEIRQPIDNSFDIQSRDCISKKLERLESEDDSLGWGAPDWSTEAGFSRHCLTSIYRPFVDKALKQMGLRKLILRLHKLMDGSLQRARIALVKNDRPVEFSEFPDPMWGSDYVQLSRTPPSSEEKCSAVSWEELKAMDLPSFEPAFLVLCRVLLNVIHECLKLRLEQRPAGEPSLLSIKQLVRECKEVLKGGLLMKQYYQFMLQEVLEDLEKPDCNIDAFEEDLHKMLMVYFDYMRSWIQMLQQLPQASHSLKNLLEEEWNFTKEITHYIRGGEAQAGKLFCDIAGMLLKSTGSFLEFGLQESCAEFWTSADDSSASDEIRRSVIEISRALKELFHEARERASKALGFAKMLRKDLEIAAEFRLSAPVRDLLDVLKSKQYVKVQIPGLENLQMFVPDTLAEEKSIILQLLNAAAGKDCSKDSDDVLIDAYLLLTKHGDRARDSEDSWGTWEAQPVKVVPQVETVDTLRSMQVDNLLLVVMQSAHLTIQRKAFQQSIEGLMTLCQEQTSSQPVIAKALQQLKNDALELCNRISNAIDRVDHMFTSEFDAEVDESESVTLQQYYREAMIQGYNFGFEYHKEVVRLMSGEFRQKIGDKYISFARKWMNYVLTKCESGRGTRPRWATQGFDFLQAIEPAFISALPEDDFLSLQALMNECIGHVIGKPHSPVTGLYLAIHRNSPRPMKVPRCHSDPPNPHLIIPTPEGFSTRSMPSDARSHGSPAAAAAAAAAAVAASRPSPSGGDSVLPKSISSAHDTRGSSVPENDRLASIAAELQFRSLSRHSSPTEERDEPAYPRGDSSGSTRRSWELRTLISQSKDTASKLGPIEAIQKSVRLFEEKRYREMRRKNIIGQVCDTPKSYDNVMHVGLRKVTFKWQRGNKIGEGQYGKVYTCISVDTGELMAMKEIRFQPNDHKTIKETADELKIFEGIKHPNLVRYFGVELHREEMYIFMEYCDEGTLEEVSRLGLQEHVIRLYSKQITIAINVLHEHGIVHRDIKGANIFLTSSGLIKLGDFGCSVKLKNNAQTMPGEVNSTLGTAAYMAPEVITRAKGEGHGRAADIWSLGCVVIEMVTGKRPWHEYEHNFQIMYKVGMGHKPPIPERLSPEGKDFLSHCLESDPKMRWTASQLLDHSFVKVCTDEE
UniProt P06536, sequence (whole entry, looked up): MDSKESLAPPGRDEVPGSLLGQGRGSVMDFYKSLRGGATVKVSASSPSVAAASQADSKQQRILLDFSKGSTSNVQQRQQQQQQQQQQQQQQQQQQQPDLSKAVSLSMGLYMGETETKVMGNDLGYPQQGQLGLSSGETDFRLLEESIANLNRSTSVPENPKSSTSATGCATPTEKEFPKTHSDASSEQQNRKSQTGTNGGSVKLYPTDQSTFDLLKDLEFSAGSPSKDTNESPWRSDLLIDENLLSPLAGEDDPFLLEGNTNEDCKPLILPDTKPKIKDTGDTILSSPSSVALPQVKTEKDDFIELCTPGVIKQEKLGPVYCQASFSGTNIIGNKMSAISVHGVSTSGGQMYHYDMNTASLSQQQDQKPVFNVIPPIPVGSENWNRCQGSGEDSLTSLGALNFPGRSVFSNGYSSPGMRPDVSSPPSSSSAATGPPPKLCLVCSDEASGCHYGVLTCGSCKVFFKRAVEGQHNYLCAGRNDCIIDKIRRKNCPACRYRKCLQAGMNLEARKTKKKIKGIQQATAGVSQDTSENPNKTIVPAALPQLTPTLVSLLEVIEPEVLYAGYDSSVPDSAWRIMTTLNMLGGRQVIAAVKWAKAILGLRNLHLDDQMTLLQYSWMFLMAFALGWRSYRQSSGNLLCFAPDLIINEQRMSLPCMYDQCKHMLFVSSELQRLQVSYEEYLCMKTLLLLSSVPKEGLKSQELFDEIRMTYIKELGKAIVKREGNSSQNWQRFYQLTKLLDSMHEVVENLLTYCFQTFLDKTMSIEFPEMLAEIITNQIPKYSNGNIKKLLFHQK
UniProt Q9HBH9, sequence (whole entry, looked up): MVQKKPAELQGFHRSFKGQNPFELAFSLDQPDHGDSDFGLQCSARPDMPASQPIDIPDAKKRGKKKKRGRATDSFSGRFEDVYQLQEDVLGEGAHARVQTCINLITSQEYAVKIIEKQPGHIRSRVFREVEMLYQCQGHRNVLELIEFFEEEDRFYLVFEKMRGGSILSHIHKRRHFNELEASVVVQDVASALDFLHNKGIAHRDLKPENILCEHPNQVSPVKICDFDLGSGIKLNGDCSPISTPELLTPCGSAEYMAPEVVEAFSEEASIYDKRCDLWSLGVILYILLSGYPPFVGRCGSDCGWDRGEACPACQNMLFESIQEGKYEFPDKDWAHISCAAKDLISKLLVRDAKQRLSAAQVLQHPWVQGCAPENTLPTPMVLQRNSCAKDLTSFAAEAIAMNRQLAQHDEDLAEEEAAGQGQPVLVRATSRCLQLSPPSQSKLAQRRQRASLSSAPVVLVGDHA

| Structure (SMILES) | target or system | assay | test system | conditions | how to read | quantity | result |
| --- | --- | --- | --- | --- | --- | --- | --- |
| Nc1cc(C(F)(F)F)c(-c2nc(N3CCOCC3)nc(N3CCOCC3)n2)cn1 | MAP3K4 (Homo sapiens, UniProt Q9Y6R4) | enzyme activity |  | 10 µM | baseline: untreated | remaining activity | 68% |
| O=C(O)c1[nH]c2ccccc2c1C1NCCc2ccccc21 (centres unmarked) | MRC-5 fibroblasts | cytotoxicity |  |  |  | IC50 | > 100 µM |
| CNC(C)C1CCC(N)C(OC2C(N)CC(N)C(OC3OCC(C)(O)C(NC)C3O)C2O)O1 (centres unmarked) | Pseudomonas aeruginosa |  | clinical isolate RKI-No_693/15 |  |  | MIC | 2 µg/mL (≈ 4.19 µM) |
| O=c1c(-c2ccc(O)cc2)coc2cc(O)cc(O)c12 | NIH3T3 | mitogenic effect |  | added: insulin |  | IC50 | 19 µM |
| C[C@H]1COCCN1c1nc(-c2cnc(N)cc2C(F)F)nc(N2CCOCC2)n1 | VA-ES-BJ |  |  |  |  | GI50 | 0.127 µM |
| O=C(/C=C/c1cccc(S(=O)(=O)Nc2ccccc2)c1)NO | neonatal foreskin fibroblasts | cell growth |  |  |  | IC50 | 2.37 ± 1.61 µM |
| Cc1nc2ccc3ccc(CNc4ccc5c(c4)CN([C@@H](CCC(=O)O)C(=O)O)C5=O)cc3c2c(=O)[nH]1 | KB | cell growth |  | added: folic acid 200 nM |  | IC50 | 0.032 µM |
| COc1cc2c3c(n(CCCN4CCOCC4)c(=O)c2cc1OC)-c1cc2c(cc1C3=O)OCO2 | P388 |  |  | 72 h |  | IC50 | 0.3 µM |
| COc1cc2c(Oc3ccc(NC(=O)C4(C(=O)Nc5ccc(F)cc5)CC4)cc3F)ccnc2cc1OCCCN1CCOCC1 | A 172 |  |  |  |  | IC50 | 1.33 µM |
| O=c1ncccn1[C@@H]1O[C@H](CO)[C@@H](O)[C@H]1O | A2780 |  |  |  |  | IC50 | 92 µM |
| COc1cc2c(Oc3ccc4[nH]c(C)cc4c3F)ncnc2cc1OCCCN1CCCC1 | A 172 |  |  |  |  | IC50 | 1.71 µM |
| C/C=C1\NC(=O)[C@H]2CSSCC/C=C/[C@H](CC(=O)N[C@H](C(C)C)C(=O)N2)OC(=O)[C@H](C(C)C)NC1=O | neonatal foreskin fibroblasts | cell growth |  |  |  | IC50 | 0.001 ± 0.001 µM |
| CCC(=O)O[C@]1(C(=O)SCF)[C@H](C)C[C@H]2[C@@H]3C[C@H](F)C4=CC(=O)C=C[C@]4(C)[C@@]3(F)[C@@H](O)C[C@@]21C | Nr3c1 (Rattus norvegicus, UniProt P06536) |  | rat, spleen | intravenous, 90 nmol/kg, 2 (unit not given) |  | receptor occupancy | 67.3% |
| CC(=O)Nc1cccc(-n2c(=O)n(C3CC3)c(=O)c3c(Nc4ccc(I)cc4F)n(C)c(=O)c(C)c32)c1 | A 172 |  |  |  |  | IC50 | 1.5 µM |
| CC1(C)S[C@@H]2[C@H](NC(=O)[C@H](N)c3ccccc3)C(=O)N2[C@H]1C(=O)O | Pseudomonas aeruginosa |  | clinical isolate RKI-No_47/09 |  |  | MIC | > 16 µg/mL |
| Cc1c(C#N)cccc1[C@@H](C)Nc1nnc(C)c2cnc(N3CCOCC3)cc12 | LN-229 | ERK phosphorylation, In-Cell Western, item: phospho-ERK |  |  |  | IC50 | 0.0389 ± 0.0193 µM |
| Nc1cc(C(F)(F)F)c(-c2cc(N3CCOCC3)nc(N3CCOCC3)n2)cn1 | A 172 |  |  |  |  | IC50 | 1.23 µM |
| COc1ccccc1Oc1cccc(CN2CCC(NC(=O)C(CCN3CCCC3)c3ccccc3)CC2)c1 (centres unmarked) | human CCR8 S110H mutant (TM3) | IP accumulation, agonist |  |  |  | EC50 | > 10 µM |
| NC1(c2ccc(-c3nc4ccn5c(=O)[nH]nc5c4cc3-c3ccccc3)cc2)CCC1 | A 172 |  |  |  |  | IC50 | 46.1 µM |
| CC[C@@]1([C@@H]2O[C@@H]([C@H]3O[C@@](O)(CO)[C@H](C)C[C@@H]3C)C[C@@H]2C)CC[C@H]([C@]2(C)CC[C@]3(C[C@H](O)[C@@H](C)[C@@H]([C@@H](C)[C@@H](OC)[C@H](C)C(=O)O)O3)O2)O1 | U-118 MG | cell viability |  | 3D mini-ring |  | IC50 | 0.613 µM |
| CCN1[C@@H](C(=O)NC23CCC(C(=O)O)(CC2)CC3)[C@H](c2cccc(Cl)c2F)[C@]2(C(=O)Nc3cc(Cl)ccc32)C12CCCCC2 | SJSA-1 | cell growth |  |  |  | IC50 | 2.7 µM |
| CCc1c2c(nc3ccc(OC(=O)N4CCC(N5CCCCC5)CC4)cc13)-c1cc3c(c(=O)n1C2)COC(=O)[C@]3(O)CC | HT-29 |  |  |  |  | IC50 | 5.17 µM |
| Cc1cc(NC(=O)c2cccc(NC(=O)/C=C/CN(C)C)c2)ccc1Nc1nccc(-c2cccnc2)n1 | MKNK2 (Homo sapiens, UniProt Q9HBH9) | enzyme activity, inhibitor |  | 1 µM | baseline: vehicle | remaining activity | 7% |

A few entries again:
| Structure (SMILES) | target or system | assay | test system | conditions | how to read | quantity | result |
| --- | --- | --- | --- | --- | --- | --- | --- |
| CCC(=O)O[C@]1(C(=O)SCF)[C@H](C)C[C@H]2[C@@H]3C[C@H](F)C4=CC(=O)C=C[C@]4(C)[C@@]3(F)[C@@H](O)C[C@@]21C | Nr3c1 (Rattus norvegicus, UniProt P06536) |  | rat, spleen | intravenous, 90 nmol/kg, 2 (unit not given) |  | receptor occupancy | 67.3% |
| Cc1c(C#N)cccc1[C@@H](C)Nc1nnc(C)c2cnc(N3CCOCC3)cc12 | LN-229 | ERK phosphorylation, In-Cell Western, item: phospho-ERK |  |  |  | IC50 | 0.0389 ± 0.0193 µM |
| CNC(C)C1CCC(N)C(OC2C(N)CC(N)C(OC3OCC(C)(O)C(NC)C3O)C2O)O1 (centres unmarked) | Pseudomonas aeruginosa |  | clinical isolate RKI-No_693/15 |  |  | MIC | 2 µg/mL (≈ 4.19 µM) |
| CCN1[C@@H](C(=O)NC23CCC(C(=O)O)(CC2)CC3)[C@H](c2cccc(Cl)c2F)[C@]2(C(=O)Nc3cc(Cl)ccc32)C12CCCCC2 | SJSA-1 | cell growth |  |  |  | IC50 | 2.7 µM |
